Experimental data pooled from the literature.
Parts stem from different laboratories: compare values within a part only. “And” joins repeats or separate records; there may be more than shown.
Sequence of UniProt Q16644 (whole entry, looked up): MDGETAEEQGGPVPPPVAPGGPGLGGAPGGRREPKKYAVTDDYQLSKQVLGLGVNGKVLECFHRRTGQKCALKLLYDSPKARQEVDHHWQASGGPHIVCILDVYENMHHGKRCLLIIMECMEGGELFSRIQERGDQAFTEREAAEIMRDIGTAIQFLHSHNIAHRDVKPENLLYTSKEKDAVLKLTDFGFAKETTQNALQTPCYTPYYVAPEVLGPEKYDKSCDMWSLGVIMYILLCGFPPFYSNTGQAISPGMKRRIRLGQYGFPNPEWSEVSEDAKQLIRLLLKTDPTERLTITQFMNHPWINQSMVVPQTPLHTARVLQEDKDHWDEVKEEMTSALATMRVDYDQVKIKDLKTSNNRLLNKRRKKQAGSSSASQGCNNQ
Sequence of UniProt Q8NE63 (whole entry, looked up): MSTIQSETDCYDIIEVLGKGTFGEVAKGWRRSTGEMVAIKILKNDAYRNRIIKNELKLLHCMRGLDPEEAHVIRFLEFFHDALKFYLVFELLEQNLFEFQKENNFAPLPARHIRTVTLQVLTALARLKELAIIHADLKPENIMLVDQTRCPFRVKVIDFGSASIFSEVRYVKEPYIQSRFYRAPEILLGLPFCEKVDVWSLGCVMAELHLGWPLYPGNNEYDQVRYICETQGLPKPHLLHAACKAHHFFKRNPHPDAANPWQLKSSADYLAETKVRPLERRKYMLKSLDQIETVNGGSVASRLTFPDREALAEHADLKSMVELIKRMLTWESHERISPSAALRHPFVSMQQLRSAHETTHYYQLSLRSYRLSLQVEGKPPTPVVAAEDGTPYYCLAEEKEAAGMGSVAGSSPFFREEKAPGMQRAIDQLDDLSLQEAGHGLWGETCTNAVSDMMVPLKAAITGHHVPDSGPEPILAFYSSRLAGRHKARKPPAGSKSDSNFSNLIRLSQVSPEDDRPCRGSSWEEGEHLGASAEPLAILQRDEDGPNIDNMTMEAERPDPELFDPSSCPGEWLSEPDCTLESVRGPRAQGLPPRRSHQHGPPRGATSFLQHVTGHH
Sequence of UniProt P54760 (whole entry, looked up): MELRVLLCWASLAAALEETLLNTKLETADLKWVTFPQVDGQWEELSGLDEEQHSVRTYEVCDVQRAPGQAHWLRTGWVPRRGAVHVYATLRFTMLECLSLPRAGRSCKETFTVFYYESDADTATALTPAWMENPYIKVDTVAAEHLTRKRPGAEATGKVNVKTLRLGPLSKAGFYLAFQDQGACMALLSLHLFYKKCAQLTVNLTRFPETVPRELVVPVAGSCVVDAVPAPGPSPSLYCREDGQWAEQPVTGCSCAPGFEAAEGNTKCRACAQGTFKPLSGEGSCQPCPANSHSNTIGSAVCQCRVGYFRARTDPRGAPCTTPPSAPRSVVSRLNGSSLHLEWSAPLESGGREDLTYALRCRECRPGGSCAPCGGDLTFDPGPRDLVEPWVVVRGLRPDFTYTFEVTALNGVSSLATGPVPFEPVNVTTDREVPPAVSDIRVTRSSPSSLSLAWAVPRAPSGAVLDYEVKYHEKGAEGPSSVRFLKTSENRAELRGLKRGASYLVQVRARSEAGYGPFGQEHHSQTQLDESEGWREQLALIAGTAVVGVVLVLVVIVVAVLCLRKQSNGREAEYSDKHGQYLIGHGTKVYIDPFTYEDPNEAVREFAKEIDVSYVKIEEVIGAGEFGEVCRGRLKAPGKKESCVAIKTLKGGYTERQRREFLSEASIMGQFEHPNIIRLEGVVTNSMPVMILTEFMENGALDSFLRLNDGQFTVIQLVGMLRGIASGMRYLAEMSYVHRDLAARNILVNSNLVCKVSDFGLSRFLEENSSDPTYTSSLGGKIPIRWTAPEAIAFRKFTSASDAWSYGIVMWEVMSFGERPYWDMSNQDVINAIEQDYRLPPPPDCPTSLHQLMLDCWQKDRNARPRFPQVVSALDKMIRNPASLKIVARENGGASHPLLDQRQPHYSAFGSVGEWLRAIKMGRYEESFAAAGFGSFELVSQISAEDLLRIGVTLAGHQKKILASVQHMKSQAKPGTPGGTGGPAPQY

Sample 1
Target: DNA polymerase theta, ATPase domain (POLQ, Homo sapiens, UniProt O75417)
Sequence of UniProt O75417 (whole entry, unmodified, looked up): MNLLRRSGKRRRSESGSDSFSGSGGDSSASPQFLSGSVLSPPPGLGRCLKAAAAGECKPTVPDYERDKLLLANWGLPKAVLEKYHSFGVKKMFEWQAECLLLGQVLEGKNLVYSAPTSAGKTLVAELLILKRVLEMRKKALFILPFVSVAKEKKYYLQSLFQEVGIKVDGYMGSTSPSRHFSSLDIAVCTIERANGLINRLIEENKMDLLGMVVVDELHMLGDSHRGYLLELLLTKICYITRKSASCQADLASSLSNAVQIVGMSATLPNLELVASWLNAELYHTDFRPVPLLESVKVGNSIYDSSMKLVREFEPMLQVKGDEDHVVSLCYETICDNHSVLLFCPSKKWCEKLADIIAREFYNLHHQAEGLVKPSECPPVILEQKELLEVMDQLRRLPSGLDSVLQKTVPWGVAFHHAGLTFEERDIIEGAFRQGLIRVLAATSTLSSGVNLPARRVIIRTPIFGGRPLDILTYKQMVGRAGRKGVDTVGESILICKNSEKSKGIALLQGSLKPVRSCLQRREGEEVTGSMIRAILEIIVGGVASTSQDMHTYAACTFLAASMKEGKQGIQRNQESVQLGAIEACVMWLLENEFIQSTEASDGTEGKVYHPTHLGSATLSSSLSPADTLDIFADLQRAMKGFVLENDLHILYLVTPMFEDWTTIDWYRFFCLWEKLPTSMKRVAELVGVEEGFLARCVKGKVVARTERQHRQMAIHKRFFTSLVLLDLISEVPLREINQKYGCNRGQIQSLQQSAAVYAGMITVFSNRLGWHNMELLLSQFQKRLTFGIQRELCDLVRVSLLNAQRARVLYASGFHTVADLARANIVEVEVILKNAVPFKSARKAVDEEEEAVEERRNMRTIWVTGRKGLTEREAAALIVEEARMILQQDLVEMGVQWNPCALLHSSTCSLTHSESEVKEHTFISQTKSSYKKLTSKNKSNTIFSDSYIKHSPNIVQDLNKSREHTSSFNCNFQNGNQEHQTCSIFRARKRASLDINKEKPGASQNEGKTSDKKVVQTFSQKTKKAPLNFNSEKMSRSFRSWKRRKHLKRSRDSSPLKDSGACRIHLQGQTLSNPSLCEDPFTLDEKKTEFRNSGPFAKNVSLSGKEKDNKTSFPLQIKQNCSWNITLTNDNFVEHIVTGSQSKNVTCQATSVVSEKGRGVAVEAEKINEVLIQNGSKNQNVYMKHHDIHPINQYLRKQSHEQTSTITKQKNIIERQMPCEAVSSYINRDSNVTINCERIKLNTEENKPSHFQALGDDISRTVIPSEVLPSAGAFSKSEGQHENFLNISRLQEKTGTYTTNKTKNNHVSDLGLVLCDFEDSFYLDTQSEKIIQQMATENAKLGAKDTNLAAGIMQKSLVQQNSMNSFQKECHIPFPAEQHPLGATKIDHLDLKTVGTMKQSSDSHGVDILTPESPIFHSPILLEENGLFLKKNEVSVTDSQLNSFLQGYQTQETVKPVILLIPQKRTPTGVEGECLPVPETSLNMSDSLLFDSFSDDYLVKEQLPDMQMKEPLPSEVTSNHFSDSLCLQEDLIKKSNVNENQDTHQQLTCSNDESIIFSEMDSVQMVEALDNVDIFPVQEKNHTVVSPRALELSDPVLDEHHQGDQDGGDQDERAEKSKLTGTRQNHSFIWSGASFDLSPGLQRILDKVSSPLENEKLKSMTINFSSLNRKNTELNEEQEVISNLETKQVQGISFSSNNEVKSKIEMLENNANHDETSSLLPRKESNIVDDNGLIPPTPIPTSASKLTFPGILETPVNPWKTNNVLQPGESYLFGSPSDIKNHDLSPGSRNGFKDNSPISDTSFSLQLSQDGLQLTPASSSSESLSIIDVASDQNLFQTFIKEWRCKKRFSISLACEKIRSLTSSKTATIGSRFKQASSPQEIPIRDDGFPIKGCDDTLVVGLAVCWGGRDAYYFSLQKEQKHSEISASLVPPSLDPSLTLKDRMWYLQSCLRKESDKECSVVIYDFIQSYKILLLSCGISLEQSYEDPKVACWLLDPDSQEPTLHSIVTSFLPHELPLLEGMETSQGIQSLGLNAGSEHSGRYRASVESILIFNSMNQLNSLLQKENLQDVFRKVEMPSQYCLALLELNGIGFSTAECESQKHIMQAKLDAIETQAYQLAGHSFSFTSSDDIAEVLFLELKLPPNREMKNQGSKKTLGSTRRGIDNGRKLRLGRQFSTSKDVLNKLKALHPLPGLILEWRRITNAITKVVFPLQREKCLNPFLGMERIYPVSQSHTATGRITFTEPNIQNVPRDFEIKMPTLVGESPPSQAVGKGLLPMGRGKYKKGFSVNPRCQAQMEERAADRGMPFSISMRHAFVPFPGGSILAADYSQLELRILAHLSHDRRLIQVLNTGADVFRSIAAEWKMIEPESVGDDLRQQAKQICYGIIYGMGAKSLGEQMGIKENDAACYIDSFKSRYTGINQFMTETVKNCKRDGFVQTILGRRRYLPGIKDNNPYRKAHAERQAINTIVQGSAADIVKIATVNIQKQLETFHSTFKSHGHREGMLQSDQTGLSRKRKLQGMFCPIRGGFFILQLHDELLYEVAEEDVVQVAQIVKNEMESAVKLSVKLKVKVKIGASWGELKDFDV
Effect on: enzyme activity
Action: inhibitor
Tested at: 77 µM
Reference: untreated
SMILES	remaining activity
CC(C)(C)C(=O)OCOC(=O)[C@@H]1N2C(=O)[C@@H](/N=C/N3CCCCCC3)[C@H]2SC1(C)C	99.7%
OCc1ccc(-c2nn(Cc3ccccc3)c3ccccc23)o1	101%
Cn1c(=O)c2c(nc(/C=C/c3cccc(Cl)c3)n2C)n(C)c1=O	93.3%
O=C1NC(=O)C(c2cn(CCCO)c3ncccc23)=C1c1cnccn1	99.5%
O=C(O)c1ccc(-n2nc(-c3ccccc3O)nc2-c2ccccc2O)cc1	73.6%
CO[C@@]1(NC(=O)Cc2cccs2)C(=O)N2C(C(=O)O)=C(COC(N)=O)CS[C@@H]21	101%
CCc1c2c(nc3ccc(OC(=O)N4CCC(N5CCCCC5)CC4)cc13)-c1cc3c(c(=O)n1C2)COC(=O)[C@]3(O)CC	86.6% and 77.9%
c1nc2c(NC3CCCCC3)nc(Nc3ccc(N4CCOCC4)cc3)nc2[nH]1	100%
CC1(C)S[C@@H]2[C@H](NC(=O)Cc3ccccc3)C(=O)N2[C@H]1C(=O)O	89.4% and 104%
COc1c2c(nc3ccccc13)OC(C(C)(O)CO)C2 (stereo not shown)	102%
CC(=O)/C(C)=N/O	100%
CCSC(=N)N	110%
CN1CCc2nc(C(=O)N[C@@H]3C[C@@H](C(=O)N(C)C)CC[C@@H]3NC(=O)C(=O)Nc3ccc(Cl)cn3)sc2C1	102%
Nc1nc2n[nH]nc2c(=O)[nH]1	99.4% and 85.3%

Sample 2
Compound: O=C(c1cc2cc(O)ccc2[nH]1)c1cc2cc(O)ccc2[nH]1
Effect on: enzyme activity
Action: inhibitor
Tested at: 0.5 µM
Reference: control
target	remaining activity
Cyclin-dependent kinase 6, with cyclin D3 (CDK6, Homo sapiens, UniProt Q00534)	50.3%
Dual specificity tyrosine-phosphorylation-regulated kinase 3 (DYRK3, Homo sapiens, UniProt O43781)	115%
Ribosomal protein S6 kinase alpha-5 (RPS6KA5, Homo sapiens, UniProt O75582)	96.1%
Tyrosine-protein kinase receptor UFO (AXL, Homo sapiens, UniProt P30530)	90.1%
Calcium/calmodulin-dependent protein kinase type II subunit beta (CAMK2B, Homo sapiens, UniProt Q13554)	93.4%
Tyrosine-protein kinase ABL1 (ABL1, Homo sapiens, UniProt P00519)	27.8%
Homeodomain-interacting protein kinase 2 (HIPK2, Homo sapiens, UniProt Q9H2X6)	102%
Mitogen-activated protein kinase kinase kinase kinase 4 (MAP4K4, Homo sapiens, UniProt O95819)	6.63%
Ephrin type-B receptor 4 (EPHB4, Homo sapiens, UniProt P54760)	89.3%
Serine/threonine-protein kinase 16 (STK16, Homo sapiens, UniProt O75716)	54.6%
Ribosomal protein S6 kinase alpha-6 (RPS6KA6, Homo sapiens, UniProt Q9UK32)	26.7%
Ephrin type-B receptor 1 (EPHB1, Homo sapiens, UniProt P54762)	97%
Cyclin-dependent kinase 1, with cyclin B (CDK1, Homo sapiens, UniProt P06493)	60.5%
Phosphorylase b kinase gamma catalytic chain, skeletal muscle/heart isoform (PHKG1, Homo sapiens, UniProt Q16816)	72.1%
Homeodomain-interacting protein kinase 4 (HIPK4, Homo sapiens, UniProt Q8NE63)	99.8%
Ephrin type-A receptor 4 (EPHA4, Homo sapiens, UniProt P54764)	109%
Testis-specific serine/threonine-protein kinase 2 (TSSK2, Homo sapiens, UniProt Q96PF2)	93.6%
Cyclin-dependent kinase 4, with cyclin D3 (CDK4, Homo sapiens, UniProt P11802)	105%
MAP kinase-activated protein kinase 3 (MAPKAPK3, Homo sapiens, UniProt Q16644)	91.2%
Serine/threonine-protein kinase 17A (STK17A, Homo sapiens, UniProt Q9UEE5)	51.7%
3-phosphoinositide-dependent protein kinase 1 (PDPK1, Homo sapiens, UniProt O15530)	97.2%
Tyrosine-protein kinase Blk (BLK, Homo sapiens, UniProt P51451)	49.7%
Serine/threonine-protein kinase WNK3 (WNK3, Homo sapiens, UniProt Q9BYP7)	74.6%
Tyrosine-protein kinase Srms (SRMS, Homo sapiens, UniProt Q9H3Y6)	93.7%

Sample 3
Target: Alpha-2C adrenergic receptor (ADRA2C, Homo sapiens, UniProt P18825)
Sequence of UniProt P18825 (whole entry, looked up): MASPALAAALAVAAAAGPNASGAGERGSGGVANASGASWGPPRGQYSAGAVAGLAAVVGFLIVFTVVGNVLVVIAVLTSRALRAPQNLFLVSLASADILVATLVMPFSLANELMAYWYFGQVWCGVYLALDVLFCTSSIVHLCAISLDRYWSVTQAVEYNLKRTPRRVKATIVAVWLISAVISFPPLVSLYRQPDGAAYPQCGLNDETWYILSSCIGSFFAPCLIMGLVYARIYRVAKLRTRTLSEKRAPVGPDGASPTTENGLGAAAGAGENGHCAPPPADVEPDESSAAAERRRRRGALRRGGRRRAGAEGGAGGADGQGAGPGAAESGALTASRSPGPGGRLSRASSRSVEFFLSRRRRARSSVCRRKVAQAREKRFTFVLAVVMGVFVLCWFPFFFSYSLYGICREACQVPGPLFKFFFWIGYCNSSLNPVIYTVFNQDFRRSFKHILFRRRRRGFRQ
Effect on: ligand displacement
Tested at: 10 µM
SMILES	inhibition
O=C(NS(=O)(=O)c1ccc(NCC2CCOCC2)c([N+](=O)[O-])c1)c1ccc(N2CCN(Cc3ccc(C(F)(F)F)cc3-c3ccc(Cl)cc3)CC2)cc1Oc1cnc2[nH]ccc2c1	12.7%
O=C1NC(c2ccccn2)Sc2ccccc21 (stereo not shown)	-4.89%
CO[C@H]1CC[C@H](CNc2ccc(S(=O)(=O)NC(=O)c3ccc(N4CCN(CC5=C(c6ccc(Cl)cc6)CC(C)(C)CC5)CC4)cc3Oc3cnc4[nH]ccc4c3)cc2[N+](=O)[O-])CC1	15.6%
CN1CCN(c2ccnc(NCCc3ccccc3)n2)CC1	96.8%
CC(=O)Nc1ncc(CN2CCC[C@H](Cc3cc(C)nc(C)c3)C2)s1	31.9%
Cc1c(NC(=O)c2cc(C(N)=O)nc3cc(F)ccc23)c(C(F)(F)F)nn1Cc1ccc(C#N)cc1	-0.745%
O=C(NCCCC1CCCCC1)c1ccc(CNC(=O)c2cnn(-c3ccccc3)c2C(F)(F)F)cc1	3.68%
COc1cccc(NC(=O)c2nc3scc(CN(C)Cc4ccccc4)c3c(=O)[nH]2)c1	16.3%
O=C(Nc1ccc(Oc2ccc(F)cc2)cc1)N1CCc2ncccc2[C@H]1c1ccc(F)cc1	8.47%
c1ccc(C2CCN(c3cnc4c(N5CCOCC5)nccn34)CC2)cc1	16.5%
N#CC1(c2ccccn2)CCN(Cc2cc(C(=O)N3CCCC3)c(=O)n3ccccc23)CC1	1.13%

Sample 4
SMILES: CCCCCCCCCCCCCCCCOP(=O)([O-])OCC[N+](C)(C)C
tested on	effect on	technique	cells	tested at	setting	inhibition
THP-1	host cell growth			4 µM		5% and 7.44% and 8% and 9.21% and 9%
THP-1	host cell growth			0.004 µM		-1.28% and 0.42% and -0.13% and -0.19% and -0.45% and -0.33%
THP-1	host cell viability	high-content imaging		40 µM		102%
Leishmania donovani	parasite growth	imaging	THP-1	0.1 µM	intracellular, amastigote	5% and 9% and 4% and 2%
THP-1	host cell growth			2 µM		-2.62% and 5.83% and -1.05% and -0.8% and -2.18% and -0.89%
THP-1				20 µM	cytotoxicity	71%

For quick reference, copied from above (sample 2):
target	remaining activity
Tyrosine-protein kinase receptor UFO (AXL, Homo sapiens, UniProt P30530)	90.1%
Calcium/calmodulin-dependent protein kinase type II subunit beta (CAMK2B, Homo sapiens, UniProt Q13554)	93.4%
Tyrosine-protein kinase ABL1 (ABL1, Homo sapiens, UniProt P00519)	27.8%
Homeodomain-interacting protein kinase 2 (HIPK2, Homo sapiens, UniProt Q9H2X6)	102%
Mitogen-activated protein kinase kinase kinase kinase 4 (MAP4K4, Homo sapiens, UniProt O95819)	6.63%
